Published values pooled from the literature.
Numbered parts are unrelated; each lists some results of a single study.
Sequence of UniProt P27037 (whole entry, looked up): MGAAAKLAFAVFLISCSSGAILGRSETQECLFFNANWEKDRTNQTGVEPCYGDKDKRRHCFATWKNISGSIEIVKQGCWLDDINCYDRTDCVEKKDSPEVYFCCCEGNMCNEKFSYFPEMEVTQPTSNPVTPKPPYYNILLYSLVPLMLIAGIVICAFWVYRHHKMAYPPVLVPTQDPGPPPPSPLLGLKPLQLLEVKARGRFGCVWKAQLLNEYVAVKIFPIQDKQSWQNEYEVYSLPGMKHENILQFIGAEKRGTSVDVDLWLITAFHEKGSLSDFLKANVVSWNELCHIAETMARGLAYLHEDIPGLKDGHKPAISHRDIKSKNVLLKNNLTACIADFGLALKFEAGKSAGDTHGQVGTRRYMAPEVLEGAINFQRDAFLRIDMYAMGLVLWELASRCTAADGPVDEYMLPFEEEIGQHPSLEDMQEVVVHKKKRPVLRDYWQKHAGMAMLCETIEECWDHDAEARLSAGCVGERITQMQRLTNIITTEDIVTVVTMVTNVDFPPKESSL
Sequence of UniProt P11802 (whole entry, looked up): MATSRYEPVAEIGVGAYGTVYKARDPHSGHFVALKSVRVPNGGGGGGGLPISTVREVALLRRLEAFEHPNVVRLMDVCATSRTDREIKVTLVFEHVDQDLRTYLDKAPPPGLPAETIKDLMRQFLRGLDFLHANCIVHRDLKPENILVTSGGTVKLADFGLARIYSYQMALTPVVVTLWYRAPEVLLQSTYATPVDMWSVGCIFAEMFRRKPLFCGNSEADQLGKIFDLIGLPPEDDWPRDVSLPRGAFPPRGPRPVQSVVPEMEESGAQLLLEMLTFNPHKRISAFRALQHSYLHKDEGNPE
Sequence of UniProt Q15303 (whole entry, looked up): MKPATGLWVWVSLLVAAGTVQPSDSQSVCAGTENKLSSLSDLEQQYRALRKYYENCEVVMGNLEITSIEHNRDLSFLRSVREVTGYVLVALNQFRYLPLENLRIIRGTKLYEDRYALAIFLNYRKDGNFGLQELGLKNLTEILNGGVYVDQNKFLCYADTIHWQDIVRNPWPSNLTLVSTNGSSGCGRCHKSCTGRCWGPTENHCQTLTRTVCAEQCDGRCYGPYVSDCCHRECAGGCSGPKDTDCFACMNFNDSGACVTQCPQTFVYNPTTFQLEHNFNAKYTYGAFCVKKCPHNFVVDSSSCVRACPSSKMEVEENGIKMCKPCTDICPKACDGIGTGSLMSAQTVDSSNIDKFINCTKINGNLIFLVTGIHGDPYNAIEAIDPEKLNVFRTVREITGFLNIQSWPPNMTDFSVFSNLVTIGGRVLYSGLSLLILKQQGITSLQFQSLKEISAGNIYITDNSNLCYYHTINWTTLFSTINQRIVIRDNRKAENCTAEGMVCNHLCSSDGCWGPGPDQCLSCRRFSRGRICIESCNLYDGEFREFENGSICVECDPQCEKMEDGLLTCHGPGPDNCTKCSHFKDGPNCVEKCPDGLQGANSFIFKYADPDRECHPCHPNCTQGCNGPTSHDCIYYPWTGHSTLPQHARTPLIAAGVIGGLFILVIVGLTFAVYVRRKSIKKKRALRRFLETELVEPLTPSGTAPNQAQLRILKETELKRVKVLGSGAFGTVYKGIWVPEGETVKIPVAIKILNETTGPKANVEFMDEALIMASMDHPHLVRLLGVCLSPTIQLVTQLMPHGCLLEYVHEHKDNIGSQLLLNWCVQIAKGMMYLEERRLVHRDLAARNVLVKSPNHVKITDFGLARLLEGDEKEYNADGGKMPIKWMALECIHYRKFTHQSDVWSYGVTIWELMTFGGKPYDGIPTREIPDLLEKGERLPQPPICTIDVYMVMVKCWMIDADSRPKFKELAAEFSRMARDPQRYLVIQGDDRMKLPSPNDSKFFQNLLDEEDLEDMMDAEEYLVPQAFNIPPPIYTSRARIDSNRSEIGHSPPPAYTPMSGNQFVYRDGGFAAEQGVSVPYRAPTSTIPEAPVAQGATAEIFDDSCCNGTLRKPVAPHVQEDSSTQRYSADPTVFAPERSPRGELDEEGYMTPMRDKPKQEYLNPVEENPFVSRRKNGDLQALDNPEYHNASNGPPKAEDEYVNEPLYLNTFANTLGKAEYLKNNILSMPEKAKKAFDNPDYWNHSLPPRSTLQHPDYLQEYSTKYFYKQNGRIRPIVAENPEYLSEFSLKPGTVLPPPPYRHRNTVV
Sequence of UniProt Q59H18 (whole entry, looked up): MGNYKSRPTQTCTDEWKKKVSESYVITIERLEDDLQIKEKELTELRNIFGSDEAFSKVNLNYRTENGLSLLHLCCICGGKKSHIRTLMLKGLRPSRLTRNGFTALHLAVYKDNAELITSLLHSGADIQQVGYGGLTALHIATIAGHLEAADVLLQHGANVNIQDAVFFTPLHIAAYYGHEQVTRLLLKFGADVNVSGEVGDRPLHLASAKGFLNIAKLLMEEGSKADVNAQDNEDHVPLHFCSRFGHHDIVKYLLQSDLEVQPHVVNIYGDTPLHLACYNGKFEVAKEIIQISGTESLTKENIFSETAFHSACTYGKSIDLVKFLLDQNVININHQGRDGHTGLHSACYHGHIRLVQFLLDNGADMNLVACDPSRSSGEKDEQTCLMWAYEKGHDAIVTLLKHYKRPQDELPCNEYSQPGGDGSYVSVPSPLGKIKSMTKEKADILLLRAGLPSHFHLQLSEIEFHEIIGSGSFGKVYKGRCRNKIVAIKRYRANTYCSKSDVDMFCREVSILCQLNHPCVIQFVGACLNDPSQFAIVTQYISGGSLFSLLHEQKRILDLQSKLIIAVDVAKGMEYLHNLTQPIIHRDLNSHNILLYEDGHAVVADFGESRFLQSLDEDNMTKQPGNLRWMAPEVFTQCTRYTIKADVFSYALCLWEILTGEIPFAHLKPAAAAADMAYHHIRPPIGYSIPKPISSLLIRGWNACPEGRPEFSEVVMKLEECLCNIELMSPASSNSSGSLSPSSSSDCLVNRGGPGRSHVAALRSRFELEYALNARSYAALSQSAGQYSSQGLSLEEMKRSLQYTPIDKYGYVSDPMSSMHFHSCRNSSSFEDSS
Sequence of UniProt P16591 (whole entry, looked up): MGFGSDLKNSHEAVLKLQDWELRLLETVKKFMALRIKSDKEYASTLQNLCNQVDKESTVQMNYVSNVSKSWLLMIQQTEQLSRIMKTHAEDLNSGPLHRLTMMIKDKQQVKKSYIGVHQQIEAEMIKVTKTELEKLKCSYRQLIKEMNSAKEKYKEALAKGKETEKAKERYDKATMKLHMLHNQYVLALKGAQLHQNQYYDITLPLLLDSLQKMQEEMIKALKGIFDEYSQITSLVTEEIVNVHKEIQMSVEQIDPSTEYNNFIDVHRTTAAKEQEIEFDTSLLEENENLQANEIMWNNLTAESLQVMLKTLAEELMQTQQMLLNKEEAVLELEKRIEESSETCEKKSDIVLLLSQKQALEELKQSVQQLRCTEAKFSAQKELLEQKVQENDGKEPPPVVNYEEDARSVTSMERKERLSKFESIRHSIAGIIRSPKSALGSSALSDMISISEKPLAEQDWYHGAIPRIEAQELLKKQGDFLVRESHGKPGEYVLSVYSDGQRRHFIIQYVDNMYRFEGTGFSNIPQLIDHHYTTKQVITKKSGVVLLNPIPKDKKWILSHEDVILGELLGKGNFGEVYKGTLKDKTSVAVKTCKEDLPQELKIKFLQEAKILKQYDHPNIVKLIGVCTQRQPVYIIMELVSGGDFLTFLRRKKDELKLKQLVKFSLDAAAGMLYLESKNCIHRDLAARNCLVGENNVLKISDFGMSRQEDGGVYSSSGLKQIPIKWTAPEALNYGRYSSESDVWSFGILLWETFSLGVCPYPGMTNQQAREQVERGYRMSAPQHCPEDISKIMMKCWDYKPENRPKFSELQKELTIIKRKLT
Sequence of UniProt Q8TDX7 (whole entry, looked up): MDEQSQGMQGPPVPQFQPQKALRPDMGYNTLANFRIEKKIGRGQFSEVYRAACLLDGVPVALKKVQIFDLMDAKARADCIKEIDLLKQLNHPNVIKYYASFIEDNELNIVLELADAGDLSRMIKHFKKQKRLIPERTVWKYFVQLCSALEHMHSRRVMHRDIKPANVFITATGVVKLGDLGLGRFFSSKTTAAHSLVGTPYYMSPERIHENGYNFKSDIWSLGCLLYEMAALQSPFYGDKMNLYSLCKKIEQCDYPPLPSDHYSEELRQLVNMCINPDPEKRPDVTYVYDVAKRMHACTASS

Block 1 — technique: competition with immobilised ligand; tested at: 1 µM
Structure (SMILES): CC1=C(C#N)[C@@H](c2ccc3[nH]nc(C)c3c2)C(C#N)=C(c2ccc(Cl)cc2)N1
| target | test | remaining binding |
| --- | --- | --- |
| Serine/threonine-protein kinase TNNI3K (TNNI3K, Homo sapiens, UniProt Q59H18) | cell-free assay | 94.3% |
| Cyclin-dependent kinase 4, with cyclin D3 (CDK4, Homo sapiens, UniProt P11802) | cell-free assay | 100% |
| Activin receptor type-2B (ACVR2B, Homo sapiens, UniProt Q13705) | binding | 100% |
| Phosphatidylinositol 3-kinase catalytic subunit type 3 (PIK3C3, Homo sapiens, UniProt Q8NEB9) | cell-free assay | 100% |
| Homeodomain-interacting protein kinase 3 (HIPK3, Homo sapiens, UniProt Q9H422) | cell-free assay | 89.5% |
| Receptor-type tyrosine-protein kinase FLT3 (FLT3, Homo sapiens, UniProt P36888, ITD) | cell-free assay | 100% |
| Wee1-like protein kinase 2 (WEE2, Homo sapiens, UniProt P0C1S8) | cell-free assay | 100% |
| Aurora kinase A (AURKA, Homo sapiens, UniProt O14965) | cell-free assay | 100% |
| Activin receptor type-2A (ACVR2A, Homo sapiens, UniProt P27037) | cell-free assay | 100% |
| MAP kinase-interacting serine/threonine-protein kinase 1 (MKNK1, Homo sapiens, UniProt Q9BUB5) | cell-free assay | 100% |
| Serine/threonine-protein kinase RIO3 (RIOK3, Homo sapiens, UniProt O14730) | cell-free assay | 100% |
| Tyrosine-protein kinase Fer (FER, Homo sapiens, UniProt P16591) | cell-free assay | 97.9% |
| Calcium/calmodulin-dependent protein kinase type 1 (CAMK1, Homo sapiens, UniProt Q14012) | cell-free assay | 100% |
| Myosin-IIIb (MYO3B, Homo sapiens, UniProt Q8WXR4) | binding | 78% |
| Receptor tyrosine-protein kinase erbB-4 (ERBB4, Homo sapiens, UniProt Q15303) | cell-free assay | 100% |
| Insulin receptor-related protein (INSRR, Homo sapiens, UniProt P14616) | cell-free assay | 100% |
| Ephrin type-A receptor 1 (EPHA1, Homo sapiens, UniProt P21709) | cell-free assay | 100% |
| Serine/threonine-protein kinase VRK2 (VRK2, Homo sapiens, UniProt Q86Y07) | cell-free assay | 100% |
| Interleukin-1 receptor-associated kinase 3 (IRAK3, Homo sapiens, UniProt Q9Y616) | cell-free assay | 96.4% |
| STE20/SPS1-related proline-alanine-rich protein kinase (STK39, Homo sapiens, UniProt Q9UEW8) | cell-free assay | 90.7% |
| Serine/threonine-protein kinase Nek7 (NEK7, Homo sapiens, UniProt Q8TDX7) | cell-free assay | 87.4% |
| Macrophage colony-stimulating factor 1 receptor, autoinhibited (CSF1R, Homo sapiens, UniProt P07333) | cell-free assay | 100% |
| Cyclin-dependent kinase 15 (CDK15, Homo sapiens, UniProt Q96Q40) | cell-free assay | 75.4% |
| Epidermal growth factor receptor (EGFR, Homo sapiens, UniProt P00533, L858R/T790M) | cell-free assay | 100% |
| Cyclin-G-associated kinase (GAK, Homo sapiens, UniProt O14976) | cell-free assay | 100% |

Block 2 — cell line: Huh-7; tested at: 10 µM; time: 24 h
| Compound | viability |
| --- | --- |
| [H]/N=C(/N)NS(=O)(=O)c1ccc(N)cc1 | 90.5% |
| CC[C@H]1OC(=O)[C@H](C)[C@@H](O[C@H]2C[C@@](C)(OC)[C@@H](O)[C@H](C)O2)[C@H](C)[C@@H](O[C@@H]2O[C@H](C)C[C@H](N(C)C)[C@H]2O)[C@](C)(O)C[C@@H](C)C(=O)[C@H](C)[C@@H](O)[C@]1(C)O | 99.2% |
| Oc1c(Cl)cc(Cl)c(Cl)c1Cc1c(O)c(Cl)cc(Cl)c1Cl | 57.7% |
| Cc1cc(C(C)(C)CC(C)(C)C)ccc1OCCOCC[N+](C)(C)Cc1ccccc1 | 85.5% |
| O=c1ccc2ccccc2o1 | 107% |
| N[C@@H](Cc1cc(I)c(Oc2ccc(O)c(I)c2)c(I)c1)C(=O)O | 103% |
| NC(=O)c1cc[n+](CC2=C(C(=O)O)N3C(=O)[C@@H](NC(=O)[C@@H](c4ccccc4)S(=O)(=O)[O-])[C@H]3SC2)cc1 | 98.2% |
| CC(=O)OCC1=C(C(=O)O)N2C(=O)[C@@H](NC(=O)Cc3cccs3)[C@H]2SC1 | 102% |
| N=C(N)N/N=C/c1c(Cl)cccc1Cl | 94.9% |
| COc1cc(NS(=O)(=O)c2ccc(N)cc2)ncn1 | 100% |
| O=C(O)Cc1ccccc1Nc1c(Cl)cccc1Cl | 99.9% |

Block 3 — read-out: enzyme activity; action: inhibitor; tested at: 0.5 µM; relative to: control
Target: Ephrin type-A receptor 8 (EPHA8, Homo sapiens, UniProt P29322)
Target sequence (P29322 1-1005): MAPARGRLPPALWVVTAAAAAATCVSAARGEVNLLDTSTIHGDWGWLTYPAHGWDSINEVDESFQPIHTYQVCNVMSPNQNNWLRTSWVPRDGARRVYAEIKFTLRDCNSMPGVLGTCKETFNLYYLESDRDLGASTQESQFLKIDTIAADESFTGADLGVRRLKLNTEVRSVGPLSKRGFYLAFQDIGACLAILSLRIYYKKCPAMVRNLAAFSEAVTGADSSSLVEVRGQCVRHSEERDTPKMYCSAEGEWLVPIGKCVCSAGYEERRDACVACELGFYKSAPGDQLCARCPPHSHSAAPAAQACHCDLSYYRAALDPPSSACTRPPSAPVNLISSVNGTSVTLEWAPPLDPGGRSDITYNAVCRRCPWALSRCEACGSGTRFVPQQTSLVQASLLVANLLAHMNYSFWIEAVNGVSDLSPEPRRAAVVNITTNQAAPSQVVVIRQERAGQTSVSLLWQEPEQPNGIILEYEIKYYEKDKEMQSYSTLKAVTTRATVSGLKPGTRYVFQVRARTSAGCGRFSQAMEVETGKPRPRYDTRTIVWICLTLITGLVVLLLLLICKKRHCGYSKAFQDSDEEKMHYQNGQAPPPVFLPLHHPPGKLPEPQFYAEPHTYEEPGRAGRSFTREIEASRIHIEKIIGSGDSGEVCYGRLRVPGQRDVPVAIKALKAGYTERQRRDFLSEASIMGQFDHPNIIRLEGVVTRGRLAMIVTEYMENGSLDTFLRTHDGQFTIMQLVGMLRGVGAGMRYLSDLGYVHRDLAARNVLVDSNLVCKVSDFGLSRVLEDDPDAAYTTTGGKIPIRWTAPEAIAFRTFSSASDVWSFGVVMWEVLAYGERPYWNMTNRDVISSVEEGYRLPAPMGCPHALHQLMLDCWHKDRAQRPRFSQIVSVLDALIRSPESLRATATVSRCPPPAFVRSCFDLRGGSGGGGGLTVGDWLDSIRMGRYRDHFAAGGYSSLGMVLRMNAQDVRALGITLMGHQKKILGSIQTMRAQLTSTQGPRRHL
| Structure (SMILES) | remaining activity [%] |
| --- | --- |
| CCN(CC)CCNC(=O)c1c(C)[nH]c(/C=C2\C(=O)Nc3ccc(Cl)cc32)c1C | 99.5 |
| O=C(NC(NC(=S)Nc1ccc(F)c([N+](=O)[O-])c1)C(Cl)(Cl)Cl)C(c1ccccc1)c1ccccc1 (centres unmarked) | 104 |
| O=C1c2ccccc2-c2n[nH]c3cccc1c23 | 92.5 |
| COc1cc2ncnc(Nc3cccc(Cl)c3)c2cc1OC | 81.5 |
| O=C(Nc1cccc(Nc2nccc(Nc3cccc(C(F)(F)F)c3)n2)c1)C1CC1 | 96.3 |
| Nc1cccc(-c2cc3c(Oc4cccc(O)c4)ncnc3[nH]2)c1 | 57.5 |
| Ic1cccc(CSc2nnc(-c3ccncc3)o2)c1 | 91.5 |
| N#C/C(=C\c1ccc(O)c(O)c1)C(=O)NCc1ccccc1 | 92 |
| CCN(CC)C(=O)c1ccc(Nc2nc(OCC3CCCCC3)c3[nH]cnc3n2)cc1 | 92.1 |
| CN(C)C[C@H]1CCn2c(c(C3=C(c4cn(C)c5ccccc45)C(=O)NC3=O)c3ccccc32)C1 | 102 |
| O=c1cc(-c2cccc3c2Sc2ccccc2S3)oc(N2CCOCC2)c1 | 110 |
| Cc1cn(-c2cc(NC(=O)c3ccc(C)c(Nc4nccc(-c5cccnc5)n4)c3)cc(C(F)(F)F)c2)cn1 | 28.4 |
| COc1cc2ncnc(Nc3ccc(O)c(Br)c3)c2cc1OC | 88.3 |
| C[C@@H]1CCN(C(=O)CC#N)C[C@@H]1N(C)c1ncnc2[nH]ccc12 | 109 |
| COc1cc2c(cc1OC)-c1[nH]nc(Nc3cccc(F)c3)c1C2 | 94.2 |
| CN([C@@H](Cc1ccc(OS(=O)(=O)c2cccc3cnccc23)cc1)C(=O)N1CCN(c2ccccc2)CC1)S(=O)(=O)c1cccc2cnccc12 | 99.6 |
| c1ccc(-c2[nH]ncc2-c2ccnc3ccccc23)nc1 | 94.6 |
| O=C1C(Cl)=C(N2C(=O)CCC2=O)C(=O)c2ccccc21 | 107 |
| c1ccc(-c2cnc(Nc3ccc(OCCN4CCCC4)cc3)s2)cc1 | 96.2 |
| CCOc1nc(NC(=O)Cc2cc(OC)ccc2OC)cc(N)c1C#N | 84.2 |
| N#Cc1c(NC(=O)c2cccc3ccccc23)sc2c1CCCC2 | 104 |
| Cc1cc2ncc(-c3ccccc3)nc2cc1C | 94.5 |
| Cn1nc2c3c(cccc31)C(=O)c1ccccc1-2 | 99.4 |
| Cc1nc2cc3nc(-c4cccs4)cnc3cc2n1C | 100 |

Block 4 — species: human; sample: microsomes or S9; tested at: 2 µM; time: 0.5 h
| SMILES | remaining compound [%] |
| --- | --- |
| COc1ccc(C2CC(O)=Nc3c(C(=O)O)cn(-c4cc(F)cc(F)c4)c32)c(OC)c1OC (centres unmarked) | > 99 |
| CC1C(OC(=O)C2=CN3CCS(=O)(=O)N=C3C=C2)CC2CC1C2(C)C (centres unmarked) | 53.8 |
| CC(=O)OCCNc1cnc(Cl)cc1Cn1c(C(=O)c2cc(C)cc(C)c2)c(C(C)C)c(=O)[nH]c1=O | 0.766 |
| COc1ccc(-c2nc(Cc3ccccc3)sc2C)cc1 | 2.65 |
| COCCCNC(=O)C1CCCN(S(=O)(=O)c2ccccc2)CCC(=O)NCC1 (centres unmarked) | 96.4 |
| COc1ccc(Cl)cc1S(=O)(=O)NCCn1c(-c2ccncc2)nc2ccccc21 | 25.3 |
| CCN1CCCC1CN(Cc1cccnc1)Cc1cccc(Oc2ncccn2)c1 (centres unmarked) | 76.3 |
| CS(=O)(=O)N1CCC[C@@H]1CNc1ncnc2nc[nH]c12 | 94.3 |
| Cc1ccc(S(=O)(=O)n2cc(Br)c3c(N4CCC(N5CCOCC5)CC4)ncnc32)cc1 | 18 |
| CCOc1ccc(C2=NNC(c3ccncc3)=Nc3ccc(C(C)C)cc32)cc1 | 4.79 |
| COCCNc1nc2c(c(=O)n(C)c(=O)n2C)n1CCOC | 80.6 |
| Nc1nc2ncc(-c3ccc(Cl)cc3)c(N)n2n1 | 99.7 |
| Cc1cc(-n2c(C)cc(C(=O)CSc3[nH]c(=O)cc(C(F)(F)F)c3C#N)c2C)no1 | 0.124 |
| O=C(c1cc2cc(Br)c3ncccc3c2s1)N1CCN(c2ccccc2)CC1 | 70.7 |
| O=c1c(O)c(-c2ccccc2OC(F)F)oc2ccccc12 | 5.29 |
| CCN(CC)CCN(C)Cc1cccc2ccccc12 | 31.4 |
| Cc1cccc(N2CCN(S(=O)(=O)c3ccc(-c4ccc(=O)[nH]n4)s3)CC2C)c1 (centres unmarked) | 74.7 |
